{"data": "Results collected from several papers", "note": "Parts stem from different laboratories: compare values within a part only."}
{"data": "Sample 1", "target": "Prothrombin, mature alpha-thrombin (F2, Homo sapiens, UniProt P00734)", "technique": "aptamer microarray, sandwich", "molecule type": "DNA with 2'F-ANA", "matrix": "in vitro", "concentration": "200 nM", "notes": "whole 15-mer aptamer, many near background", "together with": "Cy3 exosite-II aptamer, 400 nM", "reading": "higher = stronger binding", "strand": "GGTTGGTGTGGTTGG"}
{"Modification": "2'F-ANA at 3 4 5 7 8 9 11 12 14 15", "mean fluorescence intensity [a.u.]": 72.6}
{"Modification": "2'F-ANA at 6 7 8 9 12 15", "mean fluorescence intensity [a.u.]": 718}
{"Modification": "2'F-ANA at 1 3 4 5 6 8 9 10 14 15", "mean fluorescence intensity [a.u.]": 48.5}
{"Modification": "2'F-ANA at 1 3 5 8 9 11 14 15", "mean fluorescence intensity [a.u.]": 46.8}
{"Modification": "2'F-ANA at 1 2 4 5 6 10 11 12 15", "mean fluorescence intensity [a.u.]": 53.1}
{"Modification": "2'F-ANA at 2 3 4 5 9 10 11 13", "mean fluorescence intensity [a.u.]": 75}
{"Modification": "2'F-ANA at 1 5 6 7 8 9 10 11 12 13 15", "mean fluorescence intensity [a.u.]": 57.8}
{"Modification": "2'F-ANA at 1 4 7 12 15", "mean fluorescence intensity [a.u.]": 316}
{"data": "Sample 2", "target": "RNA binding protein fox-1 homolog 2, RRM domain, GST-SBP tag (RBFOX2, Homo sapiens, UniProt O43251-10, residues 100-194)", "technique": "RNA Bind-n-Seq", "molecule type": "RNA", "matrix": "in vitro", "concentration": "365 nM", "notes": "natural RNA segment, single round, ends assumed", "baseline": "no-protein control", "reading": "higher = stronger binding", "shared flanks, not repeated": "GGGAGUUCUACAGUCCGACGAUC … UGGAAUUCUCGGGUGCCAA", "Target sequence (chain)": "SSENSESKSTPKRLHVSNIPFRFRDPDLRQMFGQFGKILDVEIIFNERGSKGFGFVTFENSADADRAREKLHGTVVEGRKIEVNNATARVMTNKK"}
{"Strand": "CUGUUGUAGUUACAGGUGCUCUUACUGGGCUCUGCUCUAGUGUUCCACUUCCUAGAAGUUUAUCCAGUGAACUAGACACUAAGCCAAGCACAUGUCCAGGAGGGUUGCUG", "RBNS enrichment (R)": 0.24}
{"Strand": "GAGCCCUCAGAAUGCCCACCAUGCACACAGAGACUCCAUUCUCCCCAGGACCAAGUCCUCUGCUGUUGGGGACCAUGGCCUGUCUCCUCACCUUAGUCCCUGGGCGUUUG", "RBNS enrichment (R)": 1.37}
{"Strand": "UUUCCAUUUCAGUCUGGGGACCCCAUUUCUCCCUCCUUUCCAACUUCCUUCCUUUCUUGUCCUGUUUCCCUUCCUGCCCUUGCAGUCCUGAGGUCCUGCAGCCCCGGCCC", "RBNS enrichment (R)": 1.12}
{"Strand": "CUACUUUAUGUAAUGGGGUCGAAAUCUUUGAACACAUUAUUUAUAAAAACCUGUUUAAAAAUUCUAAGUCUUUUGACAUUUUUCUUAGAAUAGUAUCAAAAGAGAUUGGA", "RBNS enrichment (R)": 0.423}
{"Strand": "UUUGGGGCAUUUUUCUACAAACACAGCCUCCUCUCCCCCUGUAUGGACUGGCUAUAACCAUAAGCCAGGCGCUUUCACCAAGAUGGCUGGUGGCCAAGGUGGGCAGUAGG", "RBNS enrichment (R)": 0.485}
{"Strand": "AAAGAUAAUUUAUGGCAAAGUGUUUAAAUUGUUUAUACAUAAAUAAAGUCUCUAAAACUCCUGUGGACACUGGUCUUGUGUGGAAAUGAUUUGAGAUGAGAAAAAGGCAA", "RBNS enrichment (R)": 1.76}
{"Strand": "CUCCUGUGGCCUUGGGCAGAACAGUAAAUACUCUGUGCACGGAGGAAAGACAUGCCCAAGAGGAAGGAAGUACUGACCAUCGGCUGCCUGUGAGCAGCUUAGCAAGGAGC", "RBNS enrichment (R)": 0.51}
{"Strand": "AACCUGAGCCUUUUCUUAUAUAAGACAAGAAUAUGUUCACAUCUUGGUAUGUGGCCAUAUUUAUAGAAUGCUGAACUCAAUGUGCAAGUUGUACUGUAUGCAGUUUUGUA", "RBNS enrichment (R)": 0.402}
{"data": "Sample 3", "target": "Sal-like protein 4, full length isoform A (SALL4, Homo sapiens, UniProt Q9UJQ4, residues 1-1053)", "technique": "universal PBM", "molecule type": "double-stranded DNA, one strand shown", "matrix": "in vitro", "concentration": "600 nM", "notes": "8-mer, flanks averaged, mean of replicates", "reading": "higher = stronger binding", "sequence of UniProt Q9UJQ4 (whole entry, looked up)": "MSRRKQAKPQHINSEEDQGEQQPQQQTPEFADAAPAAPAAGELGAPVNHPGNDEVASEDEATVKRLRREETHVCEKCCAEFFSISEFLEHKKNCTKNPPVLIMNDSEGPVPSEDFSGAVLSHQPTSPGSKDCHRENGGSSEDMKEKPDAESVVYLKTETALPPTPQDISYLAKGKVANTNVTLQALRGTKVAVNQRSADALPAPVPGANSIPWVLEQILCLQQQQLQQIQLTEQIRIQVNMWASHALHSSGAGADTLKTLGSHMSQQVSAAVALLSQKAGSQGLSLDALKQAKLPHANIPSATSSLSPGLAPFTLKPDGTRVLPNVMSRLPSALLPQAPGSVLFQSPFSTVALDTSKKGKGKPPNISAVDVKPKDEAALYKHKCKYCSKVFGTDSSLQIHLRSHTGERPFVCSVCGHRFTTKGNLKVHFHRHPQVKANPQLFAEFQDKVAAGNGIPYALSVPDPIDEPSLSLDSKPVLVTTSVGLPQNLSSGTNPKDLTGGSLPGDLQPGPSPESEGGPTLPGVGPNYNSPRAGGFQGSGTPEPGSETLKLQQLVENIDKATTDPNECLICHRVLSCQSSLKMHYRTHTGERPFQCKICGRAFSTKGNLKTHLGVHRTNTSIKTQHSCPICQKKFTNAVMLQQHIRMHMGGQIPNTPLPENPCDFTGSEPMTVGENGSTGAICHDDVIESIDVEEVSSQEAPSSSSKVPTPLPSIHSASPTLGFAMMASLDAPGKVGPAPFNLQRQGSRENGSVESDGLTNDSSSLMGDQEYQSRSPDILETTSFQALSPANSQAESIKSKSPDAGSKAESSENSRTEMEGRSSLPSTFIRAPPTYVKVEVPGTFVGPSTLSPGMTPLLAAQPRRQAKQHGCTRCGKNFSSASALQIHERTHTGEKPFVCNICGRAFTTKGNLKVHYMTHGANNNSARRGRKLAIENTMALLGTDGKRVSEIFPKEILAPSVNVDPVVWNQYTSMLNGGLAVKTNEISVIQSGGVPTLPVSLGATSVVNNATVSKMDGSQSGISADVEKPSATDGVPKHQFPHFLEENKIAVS"}
{"Strand": "AGATCGCC", "E-score": -0.192}
{"Strand": "CCCACAGA", "E-score": -0.131}
{"Strand": "CGCGCGAG", "E-score": -0.21}
{"Strand": "AGTCACCG", "E-score": -0.344}
{"Strand": "CGGTCCCC", "E-score": -0.399}
{"Strand": "ATCATCGA", "E-score": 0.0675}
{"Strand": "CCCATGGA", "E-score": -0.145}
{"Strand": "CCGGGCCA", "E-score": -0.446}
{"data": "Single results of other studies"}
{"SMILES": "C/C(O)=C(\\C#N)C(=O)Nc1ccc(C(F)(F)F)cc1", "cell line": "A-375", "concentration": "100 µM", "time": "18 h", "endpoint": "viability", "value": "74.1%"}
{"note": "Repeated from above (sample 1):"}
{"Modification": "2'F-ANA at 1 4 7 12 15", "mean fluorescence intensity [a.u.]": 316}
{"Modification": "2'F-ANA at 1 5 6 7 8 9 10 11 12 13 15", "mean fluorescence intensity [a.u.]": 57.8}
{"Modification": "2'F-ANA at 1 2 4 5 6 10 11 12 15", "mean fluorescence intensity [a.u.]": 53.1}
{"Modification": "2'F-ANA at 1 3 5 8 9 11 14 15", "mean fluorescence intensity [a.u.]": 46.8}
